Experimental data from different studies.
A part holds a random share of what one study measured. “And” joins repeats or separate records; there may be more than shown.

Sample 1 — action: antagonist
Target: Beta-1 adrenergic receptor (ADRB1, Homo sapiens, UniProt P08588)
Sequence of UniProt P08588 (whole entry, looked up): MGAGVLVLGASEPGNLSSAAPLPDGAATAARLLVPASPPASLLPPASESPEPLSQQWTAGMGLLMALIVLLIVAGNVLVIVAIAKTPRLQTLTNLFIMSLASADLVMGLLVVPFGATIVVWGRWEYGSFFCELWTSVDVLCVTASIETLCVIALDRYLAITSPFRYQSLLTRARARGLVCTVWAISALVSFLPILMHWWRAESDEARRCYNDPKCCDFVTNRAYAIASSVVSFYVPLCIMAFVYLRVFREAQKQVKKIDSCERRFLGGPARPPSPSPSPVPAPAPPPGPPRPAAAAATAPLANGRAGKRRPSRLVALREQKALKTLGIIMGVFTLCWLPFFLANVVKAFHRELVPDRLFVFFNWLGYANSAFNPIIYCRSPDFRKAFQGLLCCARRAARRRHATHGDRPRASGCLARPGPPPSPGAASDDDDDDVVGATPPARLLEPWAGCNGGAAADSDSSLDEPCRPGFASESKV
Structure (SMILES)	IC50
CC(COc1ccccc1)NC(C)C(O)c1ccc(O)cc1 (stereo not shown)	≥ 100 µM
Nc1nc(N)c2nc(-c3ccccc3)c(N)nc2n1	≥ 100 µM
CN(C)c1cccc(-c2nccc3c(=O)cc(N(C)C4CCOCC4)oc23)c1	≥ 100 µM
Cc1ccccc1-c1n[nH]c2ncc(-c3cn[nH]c3)nc12	≥ 100 µM
Cc1noc(C)c1-c1cc2cc(C(C)C)oc2c(NCCN2CCOCC2)n1	≥ 100 µM
COc1ccccc1N1CCC(CNC(=O)c2ccc(C)s2)C1 (stereo not shown)	≥ 100 µM
O=c1cc(N2CCNCC2)oc2c(-c3ccccc3)cccc12	≥ 100 µM
CCC(=O)NCCCCC(NC(=O)OCc1ccccc1)C(=O)Nc1ccc2c(C)cc(=O)oc2c1 (stereo not shown)	≥ 100 µM
O=C(Nc1ccc([C@@H](O)[C@H]2COCC(=O)N2CCCc2ccccc2)cc1)c1cnccn1	≥ 100 µM

Sample 2 — observed: enzyme activity; action: inhibitor; concentration: 10 µM
Target: Calcium/calmodulin-dependent protein kinase type II subunit alpha (CAMK2A, Homo sapiens, UniProt Q9UQM7)
Sequence of UniProt Q9UQM7 (whole entry, looked up): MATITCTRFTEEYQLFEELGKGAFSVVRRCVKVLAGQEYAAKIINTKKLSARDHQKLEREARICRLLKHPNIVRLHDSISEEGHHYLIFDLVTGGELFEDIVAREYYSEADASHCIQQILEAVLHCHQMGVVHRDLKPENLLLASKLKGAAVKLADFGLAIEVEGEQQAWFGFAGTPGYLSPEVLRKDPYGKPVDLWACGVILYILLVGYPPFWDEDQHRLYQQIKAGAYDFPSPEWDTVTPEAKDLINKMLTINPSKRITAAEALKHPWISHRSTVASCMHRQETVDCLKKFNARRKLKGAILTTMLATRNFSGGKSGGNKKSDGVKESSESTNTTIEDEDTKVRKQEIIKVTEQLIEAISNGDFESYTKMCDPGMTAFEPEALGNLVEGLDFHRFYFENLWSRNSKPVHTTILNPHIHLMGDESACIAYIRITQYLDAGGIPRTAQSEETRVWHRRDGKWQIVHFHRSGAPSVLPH
Structure (SMILES)	inhibition [%]
CC1(C)O[C@@H]2C[C@H]3[C@@H]4C[C@H](F)C5=CC(=O)C=C[C@]5(C)[C@@]4(F)[C@@H](O)C[C@]3(C)[C@]2(C(=O)CO)O1	1
CC(C)N(CCCCOCC(=O)O)c1cnc(-c2ccccc2)c(-c2ccccc2)n1	-14
CS(=O)(=O)c1cccc(C[C@H](NC(=O)c2c(Cl)cc3c(c2Cl)CCN(C(=O)c2ccc4ccoc4c2)C3)C(=O)O)c1	4
OC[C@H]1NC[C@H](O)[C@@H](O)[C@@H]1O	-9
O=c1cc(-c2ccccc2)oc2ccccc12	-3
COc1cc2ncnc(Nc3ccc(F)c(Cl)c3)c2cc1NC(=O)/C=C/CN1CCCCC1	-5
COc1ccc(C[C@@H]2c3cc(OC)c(OC)cc3CC[N@+]2(C)CCC(=O)OCCCCCOC(=O)CC[N@@+]2(C)CCc3cc(OC)c(OC)cc3[C@H]2Cc2ccc(OC)c(OC)c2)cc1OC	-12
CC(=O)N[C@@H]1[C@@H](O)[C@H](O)[C@@H](CO)O[C@@H]1O	25
O=C(O)[C@H](O)c1ccccc1	-15
COc1ccc(C[C@H](N)C(=O)N[C@H]2[C@@H](O)[C@H](n3cnc4c(N(C)C)ncnc43)O[C@@H]2CO)cc1	-5
CCc1ccc(O)cc1O	-11
CC(C)=CCc1cc(-c2coc3cc(O)cc(O)c3c2=O)cc(O)c1O	-27

Sample 3 — observed: enzyme activity; action: inhibitor; concentration: 77 µM; baseline: untreated
Target: DNA polymerase theta, ATPase domain (POLQ, Homo sapiens, UniProt O75417)
Sequence of UniProt O75417 (whole entry, unmodified, looked up): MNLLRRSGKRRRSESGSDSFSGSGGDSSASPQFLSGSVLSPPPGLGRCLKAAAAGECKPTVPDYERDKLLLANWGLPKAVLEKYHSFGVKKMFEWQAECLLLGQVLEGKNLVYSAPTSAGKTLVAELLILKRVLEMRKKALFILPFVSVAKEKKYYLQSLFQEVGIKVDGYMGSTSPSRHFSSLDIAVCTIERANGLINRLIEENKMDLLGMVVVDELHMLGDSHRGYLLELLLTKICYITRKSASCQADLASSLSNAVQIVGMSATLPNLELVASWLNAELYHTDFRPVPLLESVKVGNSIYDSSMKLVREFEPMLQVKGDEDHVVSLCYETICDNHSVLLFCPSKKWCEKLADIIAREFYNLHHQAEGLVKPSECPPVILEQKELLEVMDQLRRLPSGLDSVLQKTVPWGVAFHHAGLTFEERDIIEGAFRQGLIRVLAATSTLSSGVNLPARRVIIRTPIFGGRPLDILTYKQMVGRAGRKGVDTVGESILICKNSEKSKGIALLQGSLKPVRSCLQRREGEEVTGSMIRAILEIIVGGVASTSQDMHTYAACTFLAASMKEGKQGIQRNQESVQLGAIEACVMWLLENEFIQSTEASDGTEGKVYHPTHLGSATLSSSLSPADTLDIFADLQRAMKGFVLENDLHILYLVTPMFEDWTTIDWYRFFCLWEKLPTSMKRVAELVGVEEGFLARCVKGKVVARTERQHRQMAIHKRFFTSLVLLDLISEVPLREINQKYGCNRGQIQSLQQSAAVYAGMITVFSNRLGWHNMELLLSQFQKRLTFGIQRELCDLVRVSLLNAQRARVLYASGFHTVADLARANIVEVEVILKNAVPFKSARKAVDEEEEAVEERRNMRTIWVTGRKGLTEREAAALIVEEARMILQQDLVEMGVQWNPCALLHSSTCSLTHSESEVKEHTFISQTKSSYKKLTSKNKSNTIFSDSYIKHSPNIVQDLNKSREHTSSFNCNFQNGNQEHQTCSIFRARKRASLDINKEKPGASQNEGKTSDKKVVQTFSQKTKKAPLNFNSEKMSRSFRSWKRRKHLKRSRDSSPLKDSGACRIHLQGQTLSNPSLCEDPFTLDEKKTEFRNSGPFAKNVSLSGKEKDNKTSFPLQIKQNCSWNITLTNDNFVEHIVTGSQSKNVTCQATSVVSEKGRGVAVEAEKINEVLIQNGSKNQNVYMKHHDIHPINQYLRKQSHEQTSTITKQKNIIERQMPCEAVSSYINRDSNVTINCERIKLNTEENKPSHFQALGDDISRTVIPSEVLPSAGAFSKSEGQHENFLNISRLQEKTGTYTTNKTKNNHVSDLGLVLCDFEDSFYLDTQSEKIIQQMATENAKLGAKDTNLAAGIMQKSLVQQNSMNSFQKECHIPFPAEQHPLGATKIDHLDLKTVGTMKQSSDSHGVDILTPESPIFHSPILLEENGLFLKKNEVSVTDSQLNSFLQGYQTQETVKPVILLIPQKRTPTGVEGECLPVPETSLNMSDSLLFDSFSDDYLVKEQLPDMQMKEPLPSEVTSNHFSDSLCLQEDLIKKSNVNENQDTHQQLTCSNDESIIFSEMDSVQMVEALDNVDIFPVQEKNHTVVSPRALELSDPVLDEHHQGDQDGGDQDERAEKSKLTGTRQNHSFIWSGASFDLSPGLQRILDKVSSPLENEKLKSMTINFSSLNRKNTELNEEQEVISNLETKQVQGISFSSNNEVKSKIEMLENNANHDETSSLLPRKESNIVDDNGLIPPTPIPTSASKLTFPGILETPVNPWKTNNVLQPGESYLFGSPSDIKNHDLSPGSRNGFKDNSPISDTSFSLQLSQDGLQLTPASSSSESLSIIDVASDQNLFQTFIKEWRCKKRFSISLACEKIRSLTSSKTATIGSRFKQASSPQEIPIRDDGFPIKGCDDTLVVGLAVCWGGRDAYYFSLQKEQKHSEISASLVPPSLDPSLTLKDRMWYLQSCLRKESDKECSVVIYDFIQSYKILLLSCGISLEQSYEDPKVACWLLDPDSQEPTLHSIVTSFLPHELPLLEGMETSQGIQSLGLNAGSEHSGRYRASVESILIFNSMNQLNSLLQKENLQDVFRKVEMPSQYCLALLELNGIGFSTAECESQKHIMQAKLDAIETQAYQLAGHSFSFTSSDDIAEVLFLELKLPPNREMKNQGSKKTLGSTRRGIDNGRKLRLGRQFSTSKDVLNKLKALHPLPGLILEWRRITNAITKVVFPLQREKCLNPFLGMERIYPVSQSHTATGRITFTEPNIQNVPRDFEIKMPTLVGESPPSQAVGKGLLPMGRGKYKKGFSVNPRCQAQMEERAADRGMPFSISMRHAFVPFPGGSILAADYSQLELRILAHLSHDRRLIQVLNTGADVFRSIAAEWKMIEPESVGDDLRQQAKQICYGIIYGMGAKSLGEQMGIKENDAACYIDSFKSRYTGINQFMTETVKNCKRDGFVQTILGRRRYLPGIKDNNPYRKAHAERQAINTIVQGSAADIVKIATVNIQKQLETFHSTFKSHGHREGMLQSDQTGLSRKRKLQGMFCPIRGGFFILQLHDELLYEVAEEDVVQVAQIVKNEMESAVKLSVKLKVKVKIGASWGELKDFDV
SMILES	remaining activity
COc1ccc(CCC(=O)Nc2nc3ccc(Cl)cc3s2)cc1OC	102%
N=C(N)c1ccc(OCCCCCOc2ccc(C(=N)N)cc2)cc1	93.8%
O=S(=O)(O)NC1CCCCC1	103%
C#Cc1cccc(Nc2ncnc3cc4c(cc23)OCCOCCOCCO4)c1	104%
CCC(=O)O[C@]1(C(=O)SCF)[C@H](C)C[C@H]2[C@@H]3C[C@H](F)C4=CC(=O)C=C[C@]4(C)[C@@]3(F)[C@@H](O)C[C@@]21C	102% and 95%
COc1c/c(=C2\C=c3ccccc3=N2)[nH]/c1=C\c1[nH]c(C)cc1C	101%
Cc1ccsc1/C=C/C1=NCCCN1C	92.4%
Cc1ccc(C(=O)Cn2c3c(sc2=N)CCCC3)cc1	78.6%
N[C@@H](Cc1cc(I)c(Oc2cc(I)c(O)c(I)c2)c(I)c1)C(=O)O	99.3%

Sample 4 — observed: binding; method: radioligand binding; concentration: 10 µM
Target: Muscarinic acetylcholine receptor M4 (CHRM4, Homo sapiens, UniProt P08173)
Sequence of UniProt P08173 (whole entry, looked up): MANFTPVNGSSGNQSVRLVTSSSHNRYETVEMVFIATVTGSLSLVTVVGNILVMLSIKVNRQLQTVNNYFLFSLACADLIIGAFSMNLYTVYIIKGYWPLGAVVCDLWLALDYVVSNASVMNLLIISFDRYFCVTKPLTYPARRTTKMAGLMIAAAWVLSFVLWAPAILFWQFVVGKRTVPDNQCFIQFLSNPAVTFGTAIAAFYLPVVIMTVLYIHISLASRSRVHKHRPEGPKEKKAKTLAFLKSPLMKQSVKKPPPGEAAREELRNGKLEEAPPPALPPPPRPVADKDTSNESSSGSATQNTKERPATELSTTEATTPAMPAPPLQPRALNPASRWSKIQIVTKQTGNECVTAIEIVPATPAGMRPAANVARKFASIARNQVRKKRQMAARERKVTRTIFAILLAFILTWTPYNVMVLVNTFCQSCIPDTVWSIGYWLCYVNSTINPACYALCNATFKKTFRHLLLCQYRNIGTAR
Structure (SMILES)	inhibition
Cc1nccc(COC(=O)N2C[C@@H]3[C@@H](CNC(=O)c4ccc5[nH]nnc5c4)[C@@H]3C2)n1	16.1%
CC(C)CC(=O)N1CCc2nc(-c3ccc(Br)cc3)nc(N(C)Cc3ccccc3)c2C1	3.58%
O=C(Nc1cnc(Oc2ccc(F)cc2)nc1)N1CCc2ncccc2[C@@H]1c1ccc(F)cc1	22.8%
Cc1nc(C2CCN(C(=O)c3ccc(OC(F)(F)F)cc3N)CC2)c2ncc(N3CCN(C)CC3)cc2n1	-2.04%
Nc1c(C(=O)NCc2ccc(C(=O)NCCCC3CCCCC3)cc2)cnn1-c1ccccc1	-4.14%
COCCc1ccc(-c2c(C)nc3c(N4CCOCC4)ccnn23)cn1	5.21%
CNC(=O)Nc1ccc2c(c1)[C@]1(CC2)OC(=O)N(CC(=O)N(Cc2ccc(F)cc2)[C@@H](C)C(F)(F)F)C1=O	30.4%
CC1=C(C#N)[C@@H](c2ccc3[nH]nc(C)c3c2)C(C#N)=C(c2ccc(Cl)cc2)N1	13%
CCOC(=O)c1cc2cc(-c3cc(C(=O)NCc4ccc(C(=O)O)cc4)nn3C)ccc2[nH]1	-6.49%
CN1C(=O)[C@@H](N2CCc3cn(Cc4ccccc4)nc3C2=O)COc2ccccc21	8.56%
C[C@@]1(Cc2ccc(C#N)cc2)C(=O)N(c2cc(Cl)cc(Cl)c2)c2ncc(C(=O)NC3(c4nc(C5CCC5)no4)CC3)n21	21.6%
COc1nc2ccc([C@@](O)(c3ccccc3)C3CCN(C(C)=O)CC3)cc2c(Cl)c1Cc1ccc(-n2cccn2)cc1	8.86%
CNC(=O)c1ccc(Nc2ncc(C(F)(F)F)c(NCc3nccnc3N(C)S(C)(=O)=O)n2)cc1	-19.4%
Cc1c(N2CCCC2)nc2ccc(Br)cc2c1C(=O)NC[C@H](CCC(=O)O)c1ccccc1Cl	19.4%
CC(=O)c1c(NS(C)(=O)=O)c2cc(-c3ccc(Cl)cc3)c(-c3ccc(Cl)cc3Cl)nc2n(C)c1=O	16.2%
CC(=O)Nc1c(F)cc(C(=O)N[C@H]2CC[C@H](O)CC2)cc1O[C@@H](C)c1ccccc1	-0.27%
COCc1nc2cnc3cc(-c4c(C)noc4C)c(OC[C@H]4CCNC4)cc3c2n1[C@H](C)c1ccccc1	15.7%
CCCOc1ccc([C@H]2[C@H](C(=O)O)[C@@H](c3ccc4c(c3)OCO4)CN2CC(=O)Nc2c(CC)cccc2CC)cc1	12.5%
Cc1cc(-n2nc(Cc3cc(F)cc(C(F)(F)F)c3)nc2C)ccc1C(N)=O	6.9%
C[C@@H]1CN(c2cc(-c3nn(C)c4ccc(OC5(C)CC5)cc34)ncn2)C[C@H](C)O1	10.6%
O=C(O)c1cc(-c2ccc(C3CCNCC3)cc2)c2ccc(-c3ccc(C(F)(F)F)cc3)cc2c1	-4.96%
O=C(Nc1cccnn1)N1CC(CC=Cc2cncc(Oc3ccc(C(F)(F)F)cn3)n2)C1	-7.53%
CC(C)(O)c1cncc(-c2nc3ccc(F)cc3n2C2CC2)c1	-0.57%
Cc1cc(C)c(-n2ccn3nc(-c4cccnc4)cc23)cc1NC(=O)c1cc(C#N)cc(S(F)(F)(F)(F)F)c1	14.9%
COc1cccc(CNC(=O)c2nc3scc(COCc4ccc(C(=O)O)cc4)c3c(=O)[nH]2)c1	-11.2%

Repeated from above (sample 2):
Structure (SMILES)	inhibition [%]
O=C(O)[C@H](O)c1ccccc1	-15
CC(=O)N[C@@H]1[C@@H](O)[C@H](O)[C@@H](CO)O[C@@H]1O	25
COc1ccc(C[C@@H]2c3cc(OC)c(OC)cc3CC[N@+]2(C)CCC(=O)OCCCCCOC(=O)CC[N@@+]2(C)CCc3cc(OC)c(OC)cc3[C@H]2Cc2ccc(OC)c(OC)c2)cc1OC	-12
CCc1ccc(O)cc1O	-11
OC[C@H]1NC[C@H](O)[C@@H](O)[C@@H]1O	-9
